Measured values collected from several papers.
Numbered parts are unrelated; each lists some results of a single study. Substitutions count along the parent as printed.
Sequence of UniProt Q8N4C8 (whole entry, looked up): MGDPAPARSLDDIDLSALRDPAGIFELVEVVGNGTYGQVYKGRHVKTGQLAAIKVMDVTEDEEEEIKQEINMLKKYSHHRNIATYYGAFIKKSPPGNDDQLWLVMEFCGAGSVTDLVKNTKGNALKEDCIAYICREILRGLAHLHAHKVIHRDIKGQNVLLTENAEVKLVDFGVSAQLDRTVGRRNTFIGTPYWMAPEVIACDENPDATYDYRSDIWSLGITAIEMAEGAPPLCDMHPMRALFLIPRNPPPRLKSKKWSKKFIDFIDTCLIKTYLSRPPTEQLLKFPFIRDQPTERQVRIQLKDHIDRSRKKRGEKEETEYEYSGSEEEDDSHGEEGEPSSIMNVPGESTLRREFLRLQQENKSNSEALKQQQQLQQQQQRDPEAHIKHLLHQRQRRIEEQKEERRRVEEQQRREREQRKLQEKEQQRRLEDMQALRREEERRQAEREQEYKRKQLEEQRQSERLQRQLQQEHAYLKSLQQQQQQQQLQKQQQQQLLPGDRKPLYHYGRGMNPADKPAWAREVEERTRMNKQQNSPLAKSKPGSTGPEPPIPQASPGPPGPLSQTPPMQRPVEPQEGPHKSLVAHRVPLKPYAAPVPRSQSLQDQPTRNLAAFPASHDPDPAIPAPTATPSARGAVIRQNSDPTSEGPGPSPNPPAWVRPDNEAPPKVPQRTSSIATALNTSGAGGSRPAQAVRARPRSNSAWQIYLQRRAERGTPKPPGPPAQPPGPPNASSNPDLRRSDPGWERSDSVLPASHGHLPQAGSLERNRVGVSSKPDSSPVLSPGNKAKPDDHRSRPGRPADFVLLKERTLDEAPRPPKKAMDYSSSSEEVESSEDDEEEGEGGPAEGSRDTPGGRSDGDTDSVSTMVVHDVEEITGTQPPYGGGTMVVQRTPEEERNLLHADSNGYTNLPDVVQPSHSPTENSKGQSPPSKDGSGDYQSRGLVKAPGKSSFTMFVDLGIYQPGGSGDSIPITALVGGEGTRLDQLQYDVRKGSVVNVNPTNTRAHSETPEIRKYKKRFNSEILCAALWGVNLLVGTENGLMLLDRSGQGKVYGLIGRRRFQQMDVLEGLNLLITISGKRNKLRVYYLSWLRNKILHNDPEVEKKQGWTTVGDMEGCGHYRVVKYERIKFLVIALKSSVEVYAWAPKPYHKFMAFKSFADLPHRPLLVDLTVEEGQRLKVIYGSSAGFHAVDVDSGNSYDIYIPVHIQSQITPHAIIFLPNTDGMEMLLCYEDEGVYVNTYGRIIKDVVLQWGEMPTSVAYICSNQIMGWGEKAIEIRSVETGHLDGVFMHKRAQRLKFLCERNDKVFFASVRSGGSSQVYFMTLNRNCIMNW

Sample 1 — target: tungstate, free oxyanion; method: microfluidic competitive inhibition; matrix: in vitro, cell-free expressed; concentration: not given; direction: lower = stronger binding
Setting: derived from inhibition constants, unchanged parent 2230 nM
Starting sequence: PafA, mature enzyme, eGFP fusion (Elizabethkingia meningoseptica, UniProt Q9KJX5); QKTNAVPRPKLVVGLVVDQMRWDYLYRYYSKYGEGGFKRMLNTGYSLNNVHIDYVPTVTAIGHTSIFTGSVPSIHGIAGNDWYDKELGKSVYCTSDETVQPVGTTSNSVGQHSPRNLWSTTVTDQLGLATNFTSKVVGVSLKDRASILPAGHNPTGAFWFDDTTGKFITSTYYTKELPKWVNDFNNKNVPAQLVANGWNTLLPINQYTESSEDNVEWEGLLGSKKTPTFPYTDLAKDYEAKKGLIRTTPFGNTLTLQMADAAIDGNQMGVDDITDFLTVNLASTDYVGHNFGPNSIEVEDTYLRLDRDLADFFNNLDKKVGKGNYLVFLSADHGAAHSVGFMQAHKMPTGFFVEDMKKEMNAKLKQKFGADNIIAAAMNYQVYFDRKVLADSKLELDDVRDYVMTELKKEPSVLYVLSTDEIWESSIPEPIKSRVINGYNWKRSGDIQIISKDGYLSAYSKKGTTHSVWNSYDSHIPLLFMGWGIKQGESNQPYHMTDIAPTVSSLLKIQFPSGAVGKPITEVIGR
Variant	oxyanion analog dissociation constant [µM]
S95G	2.15
L394G	2.41
F291V	2.06
L281V	4.27
L15V	2.67
Y32V	3.22
A390V	2.37
Y380G	2.14

Sample 2 — target: CCNA2, cyclin fold, Cln2 fusion (human); method: yeast growth competition, sequencing; matrix: yeast; setting: strong parent motif; relative to: not given; direction: higher = stronger binding
Starting sequence: viral docking peptide; TSVRRALFTGGSD; partner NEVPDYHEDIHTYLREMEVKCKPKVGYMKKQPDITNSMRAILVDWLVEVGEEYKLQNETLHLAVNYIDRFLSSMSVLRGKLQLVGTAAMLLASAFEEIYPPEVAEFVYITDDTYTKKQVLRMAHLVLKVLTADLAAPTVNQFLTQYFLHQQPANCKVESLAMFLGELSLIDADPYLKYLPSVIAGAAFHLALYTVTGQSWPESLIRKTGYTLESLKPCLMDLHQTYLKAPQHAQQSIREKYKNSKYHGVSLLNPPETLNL
Variant	normalised enrichment score
TSVWRALFTGGSD [R4W]	1.79
TSVRRALGTGGSD [F8G]	-0.012
TSVRRALRTGGSD [F8R]	0.157
TSVRRALFTGWSD [G11W]	5.71
TSVRRALLTGGSD [F8L]	1.27
TSVRRALFTGISD [G11I]	6.08
TVVRRALFTGGSD [S2V]	5.47
TSVIRALFTGGSD [R4I]	2.55

Sample 3 — read-out: binding; method: phage display NGS; form: peptide; concentration: concentration not given; setting: normalized abundance; relative to: input library
Target: UDP-N-acetylglucosamine--peptide N-acetylglucosaminyltransferase 110 kDa subunit (OGT, Homo sapiens, UniProt O15294)
Sequence of UniProt O15294 (whole entry, looked up): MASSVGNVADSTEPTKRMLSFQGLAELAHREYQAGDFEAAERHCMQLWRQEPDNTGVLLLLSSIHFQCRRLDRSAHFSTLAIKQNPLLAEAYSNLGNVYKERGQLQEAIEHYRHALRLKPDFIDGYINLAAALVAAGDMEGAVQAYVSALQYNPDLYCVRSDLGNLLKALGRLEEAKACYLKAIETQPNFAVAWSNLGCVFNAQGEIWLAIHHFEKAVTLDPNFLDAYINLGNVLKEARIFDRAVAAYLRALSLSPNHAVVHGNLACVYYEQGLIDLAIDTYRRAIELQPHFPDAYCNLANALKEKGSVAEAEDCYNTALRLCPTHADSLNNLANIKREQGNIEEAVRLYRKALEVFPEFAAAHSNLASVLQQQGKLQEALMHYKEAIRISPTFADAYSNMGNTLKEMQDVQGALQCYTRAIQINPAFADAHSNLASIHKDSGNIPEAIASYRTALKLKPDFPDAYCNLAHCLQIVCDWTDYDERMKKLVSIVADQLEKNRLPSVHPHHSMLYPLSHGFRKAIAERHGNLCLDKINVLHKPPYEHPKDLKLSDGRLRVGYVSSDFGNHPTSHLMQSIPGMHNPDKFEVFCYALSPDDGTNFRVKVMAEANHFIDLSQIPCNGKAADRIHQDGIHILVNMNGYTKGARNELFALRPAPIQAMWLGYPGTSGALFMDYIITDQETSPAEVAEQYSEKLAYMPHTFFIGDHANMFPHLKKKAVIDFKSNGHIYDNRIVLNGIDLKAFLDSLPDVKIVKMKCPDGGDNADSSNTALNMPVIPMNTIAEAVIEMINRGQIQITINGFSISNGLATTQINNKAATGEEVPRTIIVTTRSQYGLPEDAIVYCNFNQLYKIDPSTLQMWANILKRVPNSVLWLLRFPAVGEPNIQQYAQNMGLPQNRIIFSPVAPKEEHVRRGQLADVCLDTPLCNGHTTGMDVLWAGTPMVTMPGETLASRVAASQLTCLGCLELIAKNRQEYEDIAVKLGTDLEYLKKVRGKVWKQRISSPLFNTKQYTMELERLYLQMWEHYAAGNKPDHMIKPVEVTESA
Molecule	enrichment fold change
NYPVHNHDFFEHHHI	64.7
HYDHNQWIHSSFHDH	5.03
QMEYYPQYQLRYMQV	2.8
TPFLPMYQIPMDVHN	15.9
HSYHHDSVHAGHNIV	4.78
TQWRMDHKHHQMHRI	65.5
HYGQMIHHFPQGFHD	7.64
FVHDQHKQHYHIVAH	71.8

Mixed results
SMILES	target	read-out	mode	concentration	relative to	measurement	result
CCn1cnc2c(Nc3cccc(Cl)c3)nc(N[C@H]3CCCC[C@H]3N)nc21	Misshapen-like kinase 1 (MINK1, Homo sapiens, UniProt Q8N4C8)	enzyme activity	inhibitor	0.5 µM	control	remaining activity	95.2%

Excerpt of the above (sample 1):
Variant	oxyanion analog dissociation constant [µM]
L15V	2.67
L281V	4.27
